{"data": "Results gathered from unrelated publications", "Ubiquitin carboxyl-terminal hydrolase 39 ZnF-UBD domain": "Ubiquitin carboxyl-terminal hydrolase 39, ZnF-UBD domain (Homo sapiens, UniProt Q53GS9)", "note": "Compare with care: the assays were run in different laboratories. ± gives the spread as reported.", "sequence of UniProt Q53GS9 (whole entry, looked up)": "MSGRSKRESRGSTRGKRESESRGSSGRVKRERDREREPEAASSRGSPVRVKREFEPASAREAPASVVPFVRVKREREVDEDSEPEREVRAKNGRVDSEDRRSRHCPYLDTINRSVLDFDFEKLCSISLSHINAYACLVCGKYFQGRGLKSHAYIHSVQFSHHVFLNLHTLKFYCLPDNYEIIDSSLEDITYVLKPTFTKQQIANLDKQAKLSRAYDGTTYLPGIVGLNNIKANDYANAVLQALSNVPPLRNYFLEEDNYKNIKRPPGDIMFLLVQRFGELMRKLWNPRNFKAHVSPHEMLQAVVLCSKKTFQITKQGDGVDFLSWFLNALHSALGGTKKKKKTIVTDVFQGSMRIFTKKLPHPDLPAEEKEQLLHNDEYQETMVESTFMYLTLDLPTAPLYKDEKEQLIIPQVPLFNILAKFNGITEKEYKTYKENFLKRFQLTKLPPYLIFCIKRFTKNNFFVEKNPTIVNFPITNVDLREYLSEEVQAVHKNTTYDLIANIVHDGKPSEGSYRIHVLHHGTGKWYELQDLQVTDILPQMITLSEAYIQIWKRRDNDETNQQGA"}
{"SMILES": "Cc1nc2ccc(OCc3ccc(C(F)(F)F)cc3)cc2[nH]1", "system": "Balb/c mouse, male, kidney", "setting": "intravenous, 1 mg/kg, 72 h", "endpoint": "tissue concentration", "value": "4.1 ± 1.7 ng/g"}
{"SMILES": "Nc1ncnc2c1ncn2[C@H]1C[C@H](O)[C@@H](COP(=O)(O)OP(=O)(O)O)O1", "assay": "binding, equilibrium dialysis LC-MS", "setting": "5 µM, thermostabilized A2AR-BRIL construct", "how to read": "reference: no-protein control, direction not given", "endpoint": "z-scored log2 fold change", "value": -0.0812}
{"SMILES": "O=c1cc(-c2ccc(O)cc2)oc2c([C@@H]3OC[C@H](O)[C@H](O)[C@H]3O)c(O)c([C@@H]3O[C@H](CO)[C@@H](O)[C@H](O)[C@H]3O)c(O)c12", "assay": "UHPLC-MS/MS", "system": "C57BL/6J mouse, brain", "setting": "oral, dose not given", "endpoint": "tissue concentration", "value": "0.25 ng/g"}
{"SMILES": "O=C(O)CCn1sc2ccccc2c1=O", "target or system": "Ubiquitin carboxyl-terminal hydrolase 39 ZnF-UBD domain", "endpoint": "Kd", "value": "> 1000 µM"}
{"SMILES": "CN(C(=O)n1cnc(-c2cccnc2)c1)[C@H]1CC[C@H](O)CC1", "system": "rat, hippocampus", "setting": "oral, 10 mg/kg daily for 5 days, 4 h", "endpoint": "tissue concentration", "value": "42.2 ± 7.2 ng/g"}
{"SMILES": "COc1ccc2c(=O)n(C)c(-c3ccccc3)nc2c1", "system": "Sprague-Dawley rat, brain", "setting": "oral, 30 mg/kg, 4 h", "endpoint": "tissue concentration", "value": "not detected"}
{"SMILES": "CN(C(=O)n1cnc(-c2ccc[n+]([O-])c2)c1)[C@H]1CC[C@H](O)CC1", "system": "rat, cortex", "setting": "oral, 10 mg/kg daily for 5 days, 24 h", "endpoint": "tissue concentration", "value": "8.6 ± 0.4 ng/g"}
{"SMILES": "CSc1cc(C)nc(SC)c1NC(=O)CN1CCN(CCSc2nc3ccccc3[nH]2)CC1.Cl", "system": "mouse Crl:CD1 (ICR), female, olfactory bulb", "setting": "intranasal, 10 µL of CA solution once daily for 7 days, 120 min after last dose, LLOQ 1 ng/g", "endpoint": "tissue concentration", "value": "not detected"}
{"SMILES": "O=C(O)C[C@H](O)[C@H](O)CO", "assay": "binding, equilibrium dialysis LC-MS", "setting": "5 µM, thermostabilized A2AR-BRIL construct", "how to read": "reference: no-protein control, direction not given", "endpoint": "z-scored log2 fold change", "value": 0.269}
{"SMILES": "CCc1c2c(nc3ccc(OC(=O)N4CCC(N5CCCCC5)CC4)cc13)-c1cc3c(c(=O)n1C2)COC(=O)[C@]3(O)CC", "system": "mouse FVB, intestine", "setting": "intraperitoneal, 50 mg/kg, 24 h", "endpoint": "tissue concentration", "value": "8040 ± 2240 ng/g"}
{"SMILES": "OCc1nc2ccc(NCc3ccc(C(F)(F)F)cc3)cc2[nH]1", "system": "Balb/c mouse, male, liver", "setting": "oral, 10 mg/kg, 48 h", "endpoint": "tissue concentration", "value": "5.1 ± 1.1 ng/g"}
{"SMILES": "O=C(O)CCn1cccn1", "target or system": "Ubiquitin carboxyl-terminal hydrolase 39 ZnF-UBD domain", "endpoint": "Kd", "value": "> 1000 µM"}
{"SMILES": "NC/C(=C\\F)COc1cccc(Cn2c(=S)[nH]c(=O)c3[nH]cnc32)c1", "system": "C57BL/6J mice, heart", "setting": "oral, 15 mg/kg single, 2 h", "endpoint": "tissue concentration", "value": "73 ng/mL"}
